Results of several laboratories.
Every numbered part comes from another study and shows a few of its results, in no order.
Sequence of UniProt P28222 (whole entry, looked up): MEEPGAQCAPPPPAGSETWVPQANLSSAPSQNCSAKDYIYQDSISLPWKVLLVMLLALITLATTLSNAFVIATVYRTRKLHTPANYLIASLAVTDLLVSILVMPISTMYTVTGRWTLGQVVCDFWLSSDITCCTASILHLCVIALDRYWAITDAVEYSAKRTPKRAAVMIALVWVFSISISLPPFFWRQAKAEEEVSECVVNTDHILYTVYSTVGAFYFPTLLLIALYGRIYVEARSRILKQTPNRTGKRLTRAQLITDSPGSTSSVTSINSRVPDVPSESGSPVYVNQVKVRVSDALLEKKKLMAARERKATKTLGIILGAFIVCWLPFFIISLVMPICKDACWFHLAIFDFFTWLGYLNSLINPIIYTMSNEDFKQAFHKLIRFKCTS
Sequence of UniProt P43115 (whole entry, looked up): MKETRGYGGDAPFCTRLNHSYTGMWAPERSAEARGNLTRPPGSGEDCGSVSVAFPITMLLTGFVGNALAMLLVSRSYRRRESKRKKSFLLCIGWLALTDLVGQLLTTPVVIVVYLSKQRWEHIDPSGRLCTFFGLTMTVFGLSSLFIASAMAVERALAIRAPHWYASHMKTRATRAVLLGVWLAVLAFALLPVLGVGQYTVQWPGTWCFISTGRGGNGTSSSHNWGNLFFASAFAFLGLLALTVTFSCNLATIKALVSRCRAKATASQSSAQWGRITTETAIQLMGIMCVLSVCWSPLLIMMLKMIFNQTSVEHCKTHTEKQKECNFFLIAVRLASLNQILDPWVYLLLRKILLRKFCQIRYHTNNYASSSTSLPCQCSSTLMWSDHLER
Sequence of UniProt P28566 (whole entry, looked up): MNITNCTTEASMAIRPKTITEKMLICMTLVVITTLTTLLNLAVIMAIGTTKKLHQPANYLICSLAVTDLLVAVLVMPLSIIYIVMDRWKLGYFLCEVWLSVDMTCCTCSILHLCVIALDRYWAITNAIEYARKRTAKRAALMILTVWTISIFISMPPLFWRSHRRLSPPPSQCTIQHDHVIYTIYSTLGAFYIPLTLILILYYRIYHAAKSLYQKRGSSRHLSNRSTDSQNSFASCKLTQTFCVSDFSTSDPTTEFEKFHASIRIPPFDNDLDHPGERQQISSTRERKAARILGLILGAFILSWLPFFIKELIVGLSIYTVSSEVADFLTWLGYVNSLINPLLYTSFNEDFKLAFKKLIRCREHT
Sequence of UniProt O15218 (whole entry, looked up): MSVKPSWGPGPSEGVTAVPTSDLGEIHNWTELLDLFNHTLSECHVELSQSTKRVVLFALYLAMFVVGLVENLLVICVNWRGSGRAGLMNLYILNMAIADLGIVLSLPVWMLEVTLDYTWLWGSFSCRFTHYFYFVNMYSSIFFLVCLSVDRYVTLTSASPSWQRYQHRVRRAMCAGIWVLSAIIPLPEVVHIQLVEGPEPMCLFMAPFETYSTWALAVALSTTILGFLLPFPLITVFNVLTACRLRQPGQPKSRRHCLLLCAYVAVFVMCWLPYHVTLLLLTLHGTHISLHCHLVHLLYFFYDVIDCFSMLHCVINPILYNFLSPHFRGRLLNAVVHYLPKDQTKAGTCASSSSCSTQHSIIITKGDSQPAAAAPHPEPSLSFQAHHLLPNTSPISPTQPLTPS
Sequence of UniProt P50052 (whole entry, looked up): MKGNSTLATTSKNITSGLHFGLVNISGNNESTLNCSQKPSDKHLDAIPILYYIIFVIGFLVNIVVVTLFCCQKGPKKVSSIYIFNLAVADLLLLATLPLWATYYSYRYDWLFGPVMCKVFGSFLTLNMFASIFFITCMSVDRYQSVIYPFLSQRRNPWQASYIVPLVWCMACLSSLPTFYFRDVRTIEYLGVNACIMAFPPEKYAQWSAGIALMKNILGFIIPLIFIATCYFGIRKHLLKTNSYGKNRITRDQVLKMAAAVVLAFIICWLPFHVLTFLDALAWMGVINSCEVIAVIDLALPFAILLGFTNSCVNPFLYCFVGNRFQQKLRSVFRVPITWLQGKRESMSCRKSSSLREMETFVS
Sequence of UniProt Q96P67 (whole entry, looked up): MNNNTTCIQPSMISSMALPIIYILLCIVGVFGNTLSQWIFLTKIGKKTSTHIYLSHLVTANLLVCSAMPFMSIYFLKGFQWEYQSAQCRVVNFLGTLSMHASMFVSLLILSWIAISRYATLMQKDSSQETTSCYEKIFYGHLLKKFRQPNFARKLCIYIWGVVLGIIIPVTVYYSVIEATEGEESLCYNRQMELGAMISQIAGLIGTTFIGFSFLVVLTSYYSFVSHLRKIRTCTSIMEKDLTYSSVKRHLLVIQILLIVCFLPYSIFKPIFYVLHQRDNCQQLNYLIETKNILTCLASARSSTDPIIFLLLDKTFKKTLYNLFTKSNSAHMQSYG
Sequence of UniProt P47898 (whole entry, looked up): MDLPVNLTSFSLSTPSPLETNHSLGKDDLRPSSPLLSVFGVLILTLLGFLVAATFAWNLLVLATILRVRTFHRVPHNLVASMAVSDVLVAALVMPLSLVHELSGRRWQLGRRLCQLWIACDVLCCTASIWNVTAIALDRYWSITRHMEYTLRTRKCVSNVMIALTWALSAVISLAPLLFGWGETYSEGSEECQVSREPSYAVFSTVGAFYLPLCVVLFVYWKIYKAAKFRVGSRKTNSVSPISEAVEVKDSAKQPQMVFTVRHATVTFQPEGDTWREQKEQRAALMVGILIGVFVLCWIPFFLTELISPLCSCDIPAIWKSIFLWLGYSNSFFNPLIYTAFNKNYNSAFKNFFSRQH
Sequence of UniProt Q8IYL9 (whole entry, looked up): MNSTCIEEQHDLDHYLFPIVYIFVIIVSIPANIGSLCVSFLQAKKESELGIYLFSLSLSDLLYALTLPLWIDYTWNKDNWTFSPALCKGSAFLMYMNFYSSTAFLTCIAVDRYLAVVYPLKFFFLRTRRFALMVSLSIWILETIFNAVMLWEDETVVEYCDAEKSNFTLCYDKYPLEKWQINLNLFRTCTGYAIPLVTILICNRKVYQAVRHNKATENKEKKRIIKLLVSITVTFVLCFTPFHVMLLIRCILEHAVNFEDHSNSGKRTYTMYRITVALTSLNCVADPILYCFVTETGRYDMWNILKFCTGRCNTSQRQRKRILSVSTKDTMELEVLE
Sequence of UniProt Q8TDV0 (whole entry, looked up): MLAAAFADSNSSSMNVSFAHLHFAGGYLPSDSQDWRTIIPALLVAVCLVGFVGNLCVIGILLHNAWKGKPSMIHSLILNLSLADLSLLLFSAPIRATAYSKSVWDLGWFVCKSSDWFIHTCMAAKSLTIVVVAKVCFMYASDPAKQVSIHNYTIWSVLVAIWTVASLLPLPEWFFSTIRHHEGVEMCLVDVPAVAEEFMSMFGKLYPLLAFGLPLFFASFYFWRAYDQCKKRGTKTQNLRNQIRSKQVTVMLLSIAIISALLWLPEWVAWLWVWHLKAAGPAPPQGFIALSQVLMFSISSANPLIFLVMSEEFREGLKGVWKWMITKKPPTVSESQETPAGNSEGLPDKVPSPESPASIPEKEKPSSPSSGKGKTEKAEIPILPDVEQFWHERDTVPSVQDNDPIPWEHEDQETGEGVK

Sample 1 — species: mouse; sample: microsomes or S9; tested at: 2 µM; time: 0.5 h
| SMILES | remaining compound [%] |
| --- | --- |
| O=C(CN(CCc1ccccc1)C(=O)CN1C(=O)COc2ccccc21)NCC1CCCO1 (centres unmarked) | 5.34 |
| CN1CC2(CCN(C(=O)NC3CCCCC3)CC2)CC1C(=O)N1CCOCC1 (centres unmarked) | 82.3 |
| O=S1(=O)N=C(N(CCOc2ccccc2)CCOc2ccccc2)c2ccccc21 | 0.861 |
| COc1cc(=O)n(-c2ccccc2)cc1C(=O)NC1CC2CCC(C1)N2S(C)(=O)=O (centres unmarked) | 65.8 |

Sample 2 — read-out: enzyme activity; mode: inhibitor; tested at: 10 µM
Target: Calcium/calmodulin-dependent protein kinase type II subunit alpha (CAMK2A, Homo sapiens, UniProt Q9UQM7)
Sequence of UniProt Q9UQM7 (whole entry, looked up): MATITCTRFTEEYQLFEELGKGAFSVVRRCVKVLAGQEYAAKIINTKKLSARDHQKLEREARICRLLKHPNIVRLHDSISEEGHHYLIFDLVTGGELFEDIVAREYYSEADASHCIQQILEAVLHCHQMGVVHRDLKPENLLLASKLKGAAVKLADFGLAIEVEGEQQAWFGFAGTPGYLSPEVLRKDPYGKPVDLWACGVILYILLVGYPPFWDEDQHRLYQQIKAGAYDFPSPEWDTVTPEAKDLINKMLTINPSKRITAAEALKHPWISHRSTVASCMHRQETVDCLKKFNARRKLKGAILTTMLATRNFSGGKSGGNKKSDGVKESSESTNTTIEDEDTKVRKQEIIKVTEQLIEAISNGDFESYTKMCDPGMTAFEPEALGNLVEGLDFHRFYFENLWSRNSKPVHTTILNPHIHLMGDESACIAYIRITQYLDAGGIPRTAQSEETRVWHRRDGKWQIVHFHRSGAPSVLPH
| SMILES | inhibition |
| --- | --- |
| C=C1CCCc2c(ccc3c2C(=O)C(=O)c2c(C)coc2-3)/C(C)=C/CCc2c1ccc1c2C(=O)C(=O)c2c(C)coc2-1 | -16% |
| CCCCCCCCCCCCO | -48% |
| Cc1oc(=O)oc1COC(=O)N1CC[C@@H](N2CC/C(=C\C3=C(C(=O)O)N4C(=O)[C@@H](NC(=O)/C(=N\O)c5nsc(N)n5)[C@H]4SC3)C2=O)C1 | 2% |
| Oc1cc(O)c2ccc(-c3ccc(O)c(O)c3)[o+]c2c1 | 3% |

Sample 3 — Structure (SMILES): NC(N)=NC(=O)c1nc(Cl)c(N2CCCCCC2)nc1N; read-out: β-arrestin recruitment; mode: agonist; technique: PRESTO-Tango; tested at: 10 µM; baseline: untreated
| target | fold over basal |
| --- | --- |
| G-protein coupled receptor 182 (GPR182, Homo sapiens, UniProt O15218) | 1.19 |
| G-protein coupled receptor 65 (GPR65, Homo sapiens, UniProt Q8IYL9) | 0.85 |
| Type-2 angiotensin II receptor (AGTR2, Homo sapiens, UniProt P50052) | 0.98 |
| Probable G-protein coupled receptor 82 (GPR82, Homo sapiens, UniProt Q96P67) | 0.93 |
| G-protein coupled receptor 151 (GPR151, Homo sapiens, UniProt Q8TDV0) | 1.61 |
| Prostaglandin E2 receptor EP3 subtype (PTGER3, Homo sapiens, UniProt P43115) | 1.39 |

Sample 4 — read-out: ligand displacement; tested at: 10 µM
Structure (SMILES): CN(C)C(=O)c1sc2nc(N3CCC(S(C)(=O)=O)CC3)cc(C(F)(F)F)c2c1N
| target | inhibition [%] |
| --- | --- |
| 5-hydroxytryptamine receptor 1B (HTR1B, Homo sapiens, UniProt P28222) | -10.7 |
| 5-hydroxytryptamine receptor 5A (HTR5A, Homo sapiens, UniProt P47898) | 5.35 |
| 5-hydroxytryptamine receptor 1E (HTR1E, Homo sapiens, UniProt P28566) | 2.45 |

For quick reference, copied from above (sample 1):
| SMILES | remaining compound [%] |
| --- | --- |
| CN1CC2(CCN(C(=O)NC3CCCCC3)CC2)CC1C(=O)N1CCOCC1 (centres unmarked) | 82.3 |
| O=C(CN(CCc1ccccc1)C(=O)CN1C(=O)COc2ccccc21)NCC1CCCO1 (centres unmarked) | 5.34 |
